# Assay results from different studies.
# Every numbered part comes from another study and shows a few of its results, in no order.
# UniProt O14757, sequence (whole entry, looked up): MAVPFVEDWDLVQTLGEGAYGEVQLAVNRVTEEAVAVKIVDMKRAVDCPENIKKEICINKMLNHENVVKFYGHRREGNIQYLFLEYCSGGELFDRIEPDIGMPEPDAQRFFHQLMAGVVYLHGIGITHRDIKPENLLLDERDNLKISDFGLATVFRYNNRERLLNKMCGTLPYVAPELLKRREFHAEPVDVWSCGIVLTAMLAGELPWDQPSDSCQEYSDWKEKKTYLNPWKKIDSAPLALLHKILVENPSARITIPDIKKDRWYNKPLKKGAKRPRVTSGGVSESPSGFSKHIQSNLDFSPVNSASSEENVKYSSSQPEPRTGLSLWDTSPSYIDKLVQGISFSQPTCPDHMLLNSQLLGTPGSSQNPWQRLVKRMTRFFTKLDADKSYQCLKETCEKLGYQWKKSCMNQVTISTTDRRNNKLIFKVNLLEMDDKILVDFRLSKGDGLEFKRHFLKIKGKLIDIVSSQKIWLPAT
# UniProt Q13464, sequence (whole entry, looked up): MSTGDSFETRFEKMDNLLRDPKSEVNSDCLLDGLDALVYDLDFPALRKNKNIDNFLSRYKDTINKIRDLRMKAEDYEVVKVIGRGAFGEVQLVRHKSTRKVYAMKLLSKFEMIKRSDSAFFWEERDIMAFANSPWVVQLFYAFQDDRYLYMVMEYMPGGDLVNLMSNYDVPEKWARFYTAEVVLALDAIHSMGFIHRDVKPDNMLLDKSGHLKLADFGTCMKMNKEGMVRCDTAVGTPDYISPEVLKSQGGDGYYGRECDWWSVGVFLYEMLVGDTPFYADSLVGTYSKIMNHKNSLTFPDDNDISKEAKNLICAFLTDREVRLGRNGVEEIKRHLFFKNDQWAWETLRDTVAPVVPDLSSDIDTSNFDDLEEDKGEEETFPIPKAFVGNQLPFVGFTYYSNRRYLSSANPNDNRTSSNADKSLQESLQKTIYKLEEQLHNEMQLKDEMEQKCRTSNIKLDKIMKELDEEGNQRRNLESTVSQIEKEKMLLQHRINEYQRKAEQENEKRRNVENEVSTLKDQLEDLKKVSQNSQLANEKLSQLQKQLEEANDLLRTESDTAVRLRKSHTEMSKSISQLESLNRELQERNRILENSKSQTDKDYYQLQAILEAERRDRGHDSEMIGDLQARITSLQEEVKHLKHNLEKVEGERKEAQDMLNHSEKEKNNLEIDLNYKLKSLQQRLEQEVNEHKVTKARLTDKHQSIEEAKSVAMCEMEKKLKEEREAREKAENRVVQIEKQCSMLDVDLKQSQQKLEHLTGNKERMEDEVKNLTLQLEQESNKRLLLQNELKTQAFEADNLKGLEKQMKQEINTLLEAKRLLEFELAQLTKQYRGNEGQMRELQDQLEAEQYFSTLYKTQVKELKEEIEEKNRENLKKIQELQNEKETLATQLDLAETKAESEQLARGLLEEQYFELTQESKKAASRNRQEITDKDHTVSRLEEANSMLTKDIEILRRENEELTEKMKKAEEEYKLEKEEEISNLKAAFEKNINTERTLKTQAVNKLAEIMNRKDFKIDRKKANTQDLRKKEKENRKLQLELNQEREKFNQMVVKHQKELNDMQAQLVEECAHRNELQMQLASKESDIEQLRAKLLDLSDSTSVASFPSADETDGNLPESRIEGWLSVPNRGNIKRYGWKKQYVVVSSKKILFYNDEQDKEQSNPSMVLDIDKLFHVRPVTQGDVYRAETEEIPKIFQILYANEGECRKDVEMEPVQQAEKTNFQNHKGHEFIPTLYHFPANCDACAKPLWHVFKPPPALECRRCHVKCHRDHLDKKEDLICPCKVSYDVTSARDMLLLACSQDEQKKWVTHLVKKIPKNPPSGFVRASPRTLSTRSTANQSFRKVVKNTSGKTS
# UniProt Q99683, sequence (whole entry, looked up): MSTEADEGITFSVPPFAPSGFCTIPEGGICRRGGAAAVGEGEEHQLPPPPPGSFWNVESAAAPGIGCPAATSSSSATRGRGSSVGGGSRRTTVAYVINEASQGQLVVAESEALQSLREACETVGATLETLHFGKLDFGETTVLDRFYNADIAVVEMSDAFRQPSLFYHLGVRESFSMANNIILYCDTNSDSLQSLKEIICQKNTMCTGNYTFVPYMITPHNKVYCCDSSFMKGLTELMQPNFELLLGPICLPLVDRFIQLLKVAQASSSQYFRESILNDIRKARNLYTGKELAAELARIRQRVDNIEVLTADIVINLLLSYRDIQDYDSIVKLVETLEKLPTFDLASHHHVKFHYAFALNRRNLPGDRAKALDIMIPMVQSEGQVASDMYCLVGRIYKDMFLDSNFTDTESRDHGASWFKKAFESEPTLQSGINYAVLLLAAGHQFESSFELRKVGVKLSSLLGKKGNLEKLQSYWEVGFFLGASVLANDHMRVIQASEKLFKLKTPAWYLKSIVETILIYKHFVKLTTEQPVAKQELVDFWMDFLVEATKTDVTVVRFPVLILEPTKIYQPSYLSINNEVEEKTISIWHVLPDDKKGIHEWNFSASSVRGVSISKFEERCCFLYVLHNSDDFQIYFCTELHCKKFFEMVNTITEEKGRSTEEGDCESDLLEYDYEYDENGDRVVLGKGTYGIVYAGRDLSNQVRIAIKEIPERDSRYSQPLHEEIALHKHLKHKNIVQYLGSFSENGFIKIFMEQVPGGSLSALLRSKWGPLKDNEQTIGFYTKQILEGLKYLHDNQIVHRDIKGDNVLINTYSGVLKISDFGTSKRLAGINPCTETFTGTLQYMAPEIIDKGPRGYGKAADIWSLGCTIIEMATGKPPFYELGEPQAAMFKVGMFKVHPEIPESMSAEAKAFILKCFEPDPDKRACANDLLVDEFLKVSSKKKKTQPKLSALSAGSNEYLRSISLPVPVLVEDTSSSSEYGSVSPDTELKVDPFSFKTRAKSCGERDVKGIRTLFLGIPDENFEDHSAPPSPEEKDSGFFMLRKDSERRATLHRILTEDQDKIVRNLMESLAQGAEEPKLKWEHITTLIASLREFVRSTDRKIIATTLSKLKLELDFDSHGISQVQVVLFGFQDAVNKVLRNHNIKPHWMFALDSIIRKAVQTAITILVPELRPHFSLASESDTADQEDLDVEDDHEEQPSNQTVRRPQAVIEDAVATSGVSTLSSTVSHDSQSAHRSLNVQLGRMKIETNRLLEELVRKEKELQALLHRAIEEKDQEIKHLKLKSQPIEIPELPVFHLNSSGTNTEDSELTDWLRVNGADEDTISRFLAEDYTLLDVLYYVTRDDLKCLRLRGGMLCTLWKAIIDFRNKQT
# UniProt O43293, sequence (whole entry, looked up): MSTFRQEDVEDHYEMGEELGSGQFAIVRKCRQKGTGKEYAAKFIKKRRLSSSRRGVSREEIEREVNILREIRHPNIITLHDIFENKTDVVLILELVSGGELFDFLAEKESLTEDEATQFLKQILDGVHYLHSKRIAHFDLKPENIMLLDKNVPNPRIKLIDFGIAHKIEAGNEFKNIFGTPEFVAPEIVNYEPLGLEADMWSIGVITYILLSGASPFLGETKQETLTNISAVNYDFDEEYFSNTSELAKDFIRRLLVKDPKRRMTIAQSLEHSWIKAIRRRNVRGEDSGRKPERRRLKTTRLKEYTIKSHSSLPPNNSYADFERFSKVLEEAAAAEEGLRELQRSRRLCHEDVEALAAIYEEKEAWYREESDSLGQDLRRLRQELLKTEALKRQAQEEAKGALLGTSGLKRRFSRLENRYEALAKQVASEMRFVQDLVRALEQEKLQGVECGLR
# UniProt Q92772, sequence (whole entry, looked up): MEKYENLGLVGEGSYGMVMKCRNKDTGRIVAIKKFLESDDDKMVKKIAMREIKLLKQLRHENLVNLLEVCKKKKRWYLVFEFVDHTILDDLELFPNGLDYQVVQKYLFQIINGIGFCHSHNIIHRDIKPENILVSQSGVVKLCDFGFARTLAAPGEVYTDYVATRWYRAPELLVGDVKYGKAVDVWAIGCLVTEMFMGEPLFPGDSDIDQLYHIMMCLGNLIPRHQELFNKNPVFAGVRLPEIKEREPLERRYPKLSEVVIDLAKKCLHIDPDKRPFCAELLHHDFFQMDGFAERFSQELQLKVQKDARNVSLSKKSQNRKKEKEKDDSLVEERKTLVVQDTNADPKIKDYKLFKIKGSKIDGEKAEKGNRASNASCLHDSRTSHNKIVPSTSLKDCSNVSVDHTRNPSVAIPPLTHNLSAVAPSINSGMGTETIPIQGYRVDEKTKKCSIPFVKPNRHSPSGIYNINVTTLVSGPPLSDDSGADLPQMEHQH

# Sample 1
# Compound: Cc1nc(Nc2ncc(C(=O)Nc3c(C)cccc3Cl)s2)cc(N2CCN(CCO)CC2)n1
# Mode: inhibitor
target,setting,inhibition [%]
"Serine/threonine-protein kinase PAK 3 (PAK3, Homo sapiens, UniProt O75914)",10 µM,< 50
"Serine/threonine-protein kinase Chk1 (CHEK1, Homo sapiens, UniProt O14757)",10 µM,< 50
"Rho-associated protein kinase 1 (ROCK1, Homo sapiens, UniProt Q13464)",1 µM,< 50
"Non-receptor tyrosine-protein kinase TNK1 (TNK1, Homo sapiens, UniProt Q13470)",10 µM,< 50
"Mitogen-activated protein kinase kinase kinase 5 (MAP3K5, Homo sapiens, UniProt Q99683)",10 µM,< 50
"Tyrosine-protein kinase Fes/Fps (FES, Homo sapiens, UniProt P07332)",10 µM,68
"Ribosomal protein S6 kinase alpha-3, N-terminal kinase domain (RPS6KA3, Homo sapiens, UniProt P51812)",10 µM,< 50
"Death-associated protein kinase 3 (DAPK3, Homo sapiens, UniProt O43293)",10 µM,< 50
"Rho-associated protein kinase 2 (ROCK2, Homo sapiens, UniProt O75116)",1 µM,< 50
"Cyclin-dependent kinase-like 2 (CDKL2, Homo sapiens, UniProt Q92772)",10 µM,< 50
"Insulin receptor (INSR, Homo sapiens, UniProt P06213)",1 µM,< 50

# Sample 2
# Target: Calcium/calmodulin-dependent protein kinase type II subunit alpha (CAMK2A, Homo sapiens, UniProt Q9UQM7)
# UniProt Q9UQM7, sequence (whole entry, looked up): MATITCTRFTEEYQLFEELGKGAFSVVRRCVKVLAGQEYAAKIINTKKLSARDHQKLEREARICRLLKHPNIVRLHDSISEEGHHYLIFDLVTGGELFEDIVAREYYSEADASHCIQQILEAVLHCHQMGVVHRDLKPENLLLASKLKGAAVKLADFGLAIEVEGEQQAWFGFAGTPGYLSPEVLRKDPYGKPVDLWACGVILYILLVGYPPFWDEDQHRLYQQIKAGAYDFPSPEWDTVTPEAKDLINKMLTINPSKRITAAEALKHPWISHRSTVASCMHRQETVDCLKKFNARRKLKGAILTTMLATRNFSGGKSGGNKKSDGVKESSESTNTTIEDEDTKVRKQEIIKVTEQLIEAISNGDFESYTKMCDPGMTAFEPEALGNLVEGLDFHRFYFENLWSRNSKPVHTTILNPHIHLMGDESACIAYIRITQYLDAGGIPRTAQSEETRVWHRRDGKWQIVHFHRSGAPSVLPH
# Effect on: enzyme activity
# Mode: inhibitor
# Concentration: 10 µM
Structure (SMILES),inhibition
COc1cc(CO)ccc1O,2%
O=C(Cn1cnnn1)N[C@@H]1C(=O)N2C(C(=O)O)=C(CSc3nncs3)CS[C@H]12,-3%
COc1cc(O)c2c(c1)O[C@H](c1cc(O)cc(O)c1)CC2=O,-63%
CN(CCCN1c2ccccc2CCc2ccccc21)CC(=O)c1ccc(Cl)cc1,8%
COc1cccc(N(C)C(=S)Oc2ccc3c(c2)CCCC3)n1,-3%
OCC1CCCCO1 (stereo not drawn),-13%
CCOC(=O)N1CCC(=C2c3ccc(Cl)cc3CCc3cccnc32)CC1,-2%
C=CC1CNC(=S)O1 (racemic),-16%

# Sample 3
# Host: mouse
# Sample: microsomes or S9
# Concentration: 2 µM
# Time: 0.5 h
SMILES,remaining compound
Clc1ccc2c(c1)C=C(c1nnc(Cc3ccccc3)o1)C=CO2,21.8%
O=S1(=O)N=C(N2CCCCC2)c2ccccc21,89.3%
Cc1ccc(C(=O)Cn2nc3n(Cc4ccccc4)c(=O)c4ccc(C(=O)NC(C)C)cc4n3c2=O)cc1,38.4%
O=C(NC1CCN(Cc2cccc3c2OCO3)CC1)c1cc2ccccc2o1,14.6%
CC(C)CCCC(C)NC(=O)C1CCN(c2nc(Cl)nc3[nH]cnc23)CC1 (stereo not drawn),3.25%
COc1cc(=O)n(C)cc1C(=O)NC(c1cccnc1)C1CCOCC1 (stereo not drawn),84.5%
CCn1c2nc(C)cc(C)c2c(=O)n2c(C(=O)O)nnc12,72.1%
CN1CCC(=C2c3ccccc3CCc3sccc32)CC1,11.9%
Brc1ccc(C2CC(c3ccc(Br)cc3)n3ncnc3N2)cc1 (stereo not drawn),42.6%

# Sample 4
# Target: 5-hydroxytryptamine receptor 1E (HTR1E, Homo sapiens, UniProt P28566)
# UniProt P28566, sequence (whole entry, looked up): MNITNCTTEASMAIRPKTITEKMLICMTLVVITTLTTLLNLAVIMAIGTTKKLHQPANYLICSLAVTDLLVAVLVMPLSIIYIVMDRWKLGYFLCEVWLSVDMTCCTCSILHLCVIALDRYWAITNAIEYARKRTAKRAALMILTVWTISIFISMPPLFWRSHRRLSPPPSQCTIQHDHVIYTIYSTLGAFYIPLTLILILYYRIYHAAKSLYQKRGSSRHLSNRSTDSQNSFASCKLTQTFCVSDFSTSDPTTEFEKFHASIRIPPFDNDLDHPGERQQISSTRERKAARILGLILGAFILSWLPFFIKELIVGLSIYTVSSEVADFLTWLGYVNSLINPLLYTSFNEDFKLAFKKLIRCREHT
# Effect on: cell-free assay
# Concentration: 10 µM
SMILES,inhibition [%]
O=C(NCCCC1CCCCC1)c1ccc(CNC(=O)c2cnn(-c3ccccc3)c2C(F)(F)F)cc1,-6.92
CN1CCN(C(=O)C(C)(C)c2ccc(C(=O)Nc3cn4cc(-c5cc(C(C)(C)C)cc(C(C)(C)C)c5)ccc4n3)cc2)CC1,60.5
O=C(Nc1ccc(Oc2ccc(F)cc2)cc1)N1CCc2ncccc2[C@H]1c1ccc(F)cc1,1.61
CN(C)c1ncnc(-c2ccc3nc(Nc4cc(CN5CCN(C(=O)CC(F)(F)F)CC5)ccn4)[nH]c3c2)c1Cl,29.3
NS(=O)(=O)c1cc(NC(=O)Cc2ccccc2)ccc1Oc1cccc(Cl)c1,-12.7
CN1C(=O)[C@@H](N2CCc3cn(Cc4ccccc4)nc3C2=O)COc2ccccc21,-1.55
COCCc1ccc(-c2c(C)nc3c(N4CCOCC4)ccnn23)cn1,-16.2
COCc1nc2cnc3cc(-c4c(C)noc4C)c(OC[C@H]4CCNC4)cc3c2n1[C@H](C)c1ccccc1,-19.5
Cc1c(N2CCCC2)nc2ccc(Br)cc2c1C(=O)NC[C@H](CCC(=O)O)c1ccccc1Cl,-44.4
CC1CCN(c2ccnc(NCc3cn(C)cn3)n2)CC1,3.36
Cc1ncc(-c2cc(Cl)ccc2F)cc1-n1c(=O)n(CC(N)=O)c2ccccc21,-22.1
CC1=C(C#N)C(c2ccc3[nH]nc(C)c3c2)C(C#N)=C(C)N1,8.21
O=C(NNS(=O)(=O)c1ccccc1F)c1cc(F)cc(-c2ccccn2)c1,13.8
Nc1nc(NCc2ccccc2)nc(-c2cccc(CO)c2)n1,-23.9
CN(C)[C@@H]1CCN(c2cc(-c3ccccc3)nc3ccnn23)C1,7.26
N#CC1(c2ccccn2)CCN(Cc2cc(C(=O)N3CCCC3)c(=O)n3ccccc23)CC1,-3.26
CS(=O)(=O)N1CCCC(NC(=O)[C@H](CCC2CCCCC2)NC(=O)c2ccc(CNC(=O)c3cnc4ccccn34)cc2)C1 (stereo partly drawn),-16.9
COc1cccc(NC(=O)c2nc3scc(CN(C)Cc4ccccc4)c3c(=O)[nH]2)c1,-0.688
C[C@H](c1ccc(F)cc1)N(Cc1ccc(Cl)c(C(=O)O)c1)C(=O)c1cnc2ccccc2c1,-24.9
CNC(=O)Nc1ccc2c(c1)CC[C@]21OC(=O)N(CC(=O)N(Cc2ccc(F)cc2)[C@@H](C)C(F)(F)F)C1=O,4.23
O=C(Nc1cnc(Oc2ccc(F)cc2)nc1)N1CCc2ncccc2[C@@H]1c1ccc(F)cc1,-8.08
O=C1c2ccc(Nc3ccc(F)cc3F)cc2CCc2ccc(OC[C@H](O)CO)cc21,18.8
NC(=O)c1ccc2nc(-c3ccc(C4(N)CCC4)cc3)c(-c3ccccc3)n2n1,-13.6
Cc1noc([C@H]2C[C@@H](c3ccc(C(F)(F)F)cc3)CN(C(=O)N3CCS(=O)(=O)C3)C2)n1,21.5
COc1cc(C(=O)O)ncc1C#Cc1ccccc1NS(=O)(=O)c1cccc2c(N(C)C)ccnc12,20.6

# Other studies, line by line
SMILES,cell line,setting,quantity,value
CC(C)[C@H](N)C(=O)OCC(CO)OCn1cnc2c(=O)nc(N)[nH]c21 (stereo partly drawn),A-375,"100 µM, 60 h",viability,99.7%

# Excerpt of the above (sample 4):
SMILES,inhibition [%]
O=C(Nc1cnc(Oc2ccc(F)cc2)nc1)N1CCc2ncccc2[C@@H]1c1ccc(F)cc1,-8.08
COc1cccc(NC(=O)c2nc3scc(CN(C)Cc4ccccc4)c3c(=O)[nH]2)c1,-0.688
CN1C(=O)[C@@H](N2CCc3cn(Cc4ccccc4)nc3C2=O)COc2ccccc21,-1.55
CC1CCN(c2ccnc(NCc3cn(C)cn3)n2)CC1,3.36
COCc1nc2cnc3cc(-c4c(C)noc4C)c(OC[C@H]4CCNC4)cc3c2n1[C@H](C)c1ccccc1,-19.5
C[C@H](c1ccc(F)cc1)N(Cc1ccc(Cl)c(C(=O)O)c1)C(=O)c1cnc2ccccc2c1,-24.9
